{"data": "Measurements from different studies", "note": "Every numbered part comes from another study and shows a few of its results, in no order. Positions count from the first letter of the parent shown."}
{"data": "Series 1", "target": "Hepatocyte nuclear factor 3-alpha (Foxa1, Mus musculus, UniProt P35582, residues 1-468, full length assumed)", "method": "EMSA with sequencing", "form": "double-stranded DNA, one strand shown", "medium": "in vitro", "concentration": "10 and 20 nM", "setting": "whole designed probe, mean of two concentrations, ends assumed", "reference": "negative control set to 0", "reading": "higher = stronger binding", "all sequences stand within": "GTGAGCGGTGCCCATTGATGGGGAAC … TTTCACTGGGATCGTGGGGAC", "UniProt P35582, sequence (whole entry, looked up)": "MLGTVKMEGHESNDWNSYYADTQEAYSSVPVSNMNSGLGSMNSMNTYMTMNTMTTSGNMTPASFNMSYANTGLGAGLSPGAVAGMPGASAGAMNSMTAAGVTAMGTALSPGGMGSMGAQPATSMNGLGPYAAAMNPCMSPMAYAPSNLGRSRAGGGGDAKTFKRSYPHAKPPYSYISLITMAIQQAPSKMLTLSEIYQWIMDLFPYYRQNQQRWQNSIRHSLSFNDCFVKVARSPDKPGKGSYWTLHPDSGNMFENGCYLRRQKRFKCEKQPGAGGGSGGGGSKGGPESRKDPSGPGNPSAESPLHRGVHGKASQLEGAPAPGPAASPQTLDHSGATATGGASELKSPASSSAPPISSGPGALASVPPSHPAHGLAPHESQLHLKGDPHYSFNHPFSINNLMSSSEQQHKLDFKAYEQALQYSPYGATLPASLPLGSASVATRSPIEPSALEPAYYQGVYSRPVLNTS"}
{"Oligonucleotide": "ACCAAGTTTCTGTAAAGATGGAAGAACAAGGTAACAGAAAGGAGAAATAACATGCCATGTTCCAAAGGGAAGTATTGTGGGCCCCTAAAGTACAAATTACTTTTCTACAGTGTGTCACTGCAAATATATATACACAAGTCAAGTTATGTGAGTCATCTACAGATTTAAGTTCCTAAGTTGGAGGGGAGAGCCC", "normalised bound fraction": "0.0245 ratio"}
{"Oligonucleotide": "CTGTTAATTTTTGTTTGCTTGTAATACACATTTTTATGTAACTGGGAGTAAGGAACATCTTAGGAAAAAGAAAACAAAAAATAAAATTTCGCTGTTTACACTGTGCCTTGGTCCAGTAACCCTGCACTGCACATATACACTTTAAATTGGTGCCTTGGGGAACCACTTCGGTATTTCTTTTTTTTTTTTCTTT", "normalised bound fraction": "0.269 ratio"}
{"Oligonucleotide": "ATTTATAAAAAGAGGAAATTATTCATGCCATCAGCACTCCCCATCAATAACAGGAGGAAACCTAACTATCTCATTACCCCATCACACTGTGTGCAATCTGAACTGCCCGTTGTTGACAATAAATATTTGATAAGTGAGGAAACAGGAAGGATAAACCAAGGGTGCAGAGTGGAGCTGCACAGTTGCCAGGAGA", "normalised bound fraction": "0.115 ratio"}
{"Oligonucleotide": "ATCTTCCCCCTCTTCCTTGCCCCACCAGCTCACCTTCCCGGGTTATTTGCAGATAGGAAATTAATATAAGCCGGCATTCGTTAACCCTCTTCTGGCGCAAACTGCCAGAGCAAACAGATGAATCATGGTCCTTTGGCGACGCCAGGCTCCGGGAGAGCAAAGCACCGTGTCAGGGCCATGATCCGGGGTGGCC", "normalised bound fraction": "0.223 ratio"}
{"Oligonucleotide": "ATCTTCCCCCTCTTCCTTGCCCCACCAGCTCACCTTCCCGGGTTATTTGCACAAAGGAAAATAAATAAAGCCGGCATTCGTTAACCCTCTTCTGGCGCAAACTGCTGTTTGCTCTGCATCTAACATGGTCCTTACGCGACGCCAGGCTCCGGGAGAGCAAAGCACCGTGTCAGGCGCATGATCCGGGGTGGCC", "normalised bound fraction": "0.375 ratio"}
{"data": "Series 2", "target": "UBE2S UBC core domain (UniProt Q16763)", "method": "yeast two-hybrid", "medium": "yeast", "setting": "mostly zero background", "reference": "not given", "reading": "higher = stronger interaction", "B1": "NFX1 RING domain (UniProt Q12986); chain IEQLTTEKYECMVCCELVRVTAPVWSCQSCYHVFHLNCIKKWARSPASQADGQSGWRCPACQNVSAHVPNTY", "B2": "VPS8 RING domain (UniProt Q8N3P4); chain TRGLNPKQDYCSICLQQYKRRQEMADEIIVFSCGHLYHSFCLQNKECTVEFEGQTRWTCYKCSSSNKVGKLSE", "B3": "RNF6 RING domain (UniProt Q9Y252); chain NSIDSELGKICSVCISDYVTGNKLRQLPCMHEFHIHCIDRWLSENCTCPICRQPVLGSNIAN", "B4": "RNF103 RING domain (UniProt O00237); chain WPADMLHCTECVVCLENFENGCLLMGLPCGHVFHQNCIVMWLAGGRHCCPVCRWPSYKKKQPY", "B5": "CNOT4 RING domain (UniProt O95628); chain MSRSPDAKEDPVECPLCMEPLEIDDINFFPCTCGYQICRFCWHRIRTDENGLCPACRKPYPED", "B6": "RING1 RING domain (UniProt Q06587); chain SPRSLHSELMCPICLDMLKNTMTTKECLHRFCSDCIVTALRSGNKECPTCRKKLVSKRSLR", "Residues (chain)": "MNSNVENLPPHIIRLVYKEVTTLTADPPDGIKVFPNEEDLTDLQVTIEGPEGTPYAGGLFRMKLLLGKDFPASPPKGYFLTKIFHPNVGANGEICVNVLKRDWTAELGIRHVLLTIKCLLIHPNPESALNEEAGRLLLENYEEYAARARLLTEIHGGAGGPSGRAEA"}
{"Molecule": "B1 (NFX1 RING domain)", "lacZ reporter activity": 0}
{"Molecule": "B2 (VPS8 RING domain)", "lacZ reporter activity": 0}
{"Molecule": "B3 (RNF6 RING domain)", "lacZ reporter activity": 0}
{"Molecule": "B4 (RNF103 RING domain)", "lacZ reporter activity": 0}
{"Molecule": "LEALSSDFLACKICLEQLRAPKTLPCLHTYCQDCLAQLADGGRVRCPECRETVPVPPEGV (TRIM56 RING domain (UniProt Q9BRZ2))", "lacZ reporter activity": 0}
{"Molecule": "LVKDFNPYITCYICKGYLIKPTTVTECLHTFCKTCIVQHFEDSNDCPRCGNQVHETNPLE (PCGF5 RING domain (UniProt Q86SE9))", "lacZ reporter activity": 0}
{"Molecule": "EIKEYKARLTCPCCNTRKKDAVLTKCFHVFCFECVRGRYEARQRKCPKCNAAFGAHDFHR (RNF40 RING domain (UniProt O75150))", "lacZ reporter activity": 0}
{"Molecule": "B5 (CNOT4 RING domain)", "lacZ reporter activity": 0}
{"Molecule": "ASPKIFQKTKCSICNSALELPSVHFLCGHSFHQHCFESYSESDADCPTCLPENRKVMDMI (VPS11 RING domain (UniProt Q9H270))", "lacZ reporter activity": 0}
{"Molecule": "B6 (RING1 RING domain)", "lacZ reporter activity": 0}
{"data": "Series 3", "target": "Sal-like protein 4, full length isoform A (SALL4, Homo sapiens, UniProt Q9UJQ4, residues 1-1053)", "method": "universal PBM", "form": "double-stranded DNA, one strand shown", "medium": "in vitro", "concentration": "600 nM", "setting": "8-mer, flanks averaged, mean of replicates", "reading": "higher = stronger binding", "UniProt Q9UJQ4, sequence (whole entry, looked up)": "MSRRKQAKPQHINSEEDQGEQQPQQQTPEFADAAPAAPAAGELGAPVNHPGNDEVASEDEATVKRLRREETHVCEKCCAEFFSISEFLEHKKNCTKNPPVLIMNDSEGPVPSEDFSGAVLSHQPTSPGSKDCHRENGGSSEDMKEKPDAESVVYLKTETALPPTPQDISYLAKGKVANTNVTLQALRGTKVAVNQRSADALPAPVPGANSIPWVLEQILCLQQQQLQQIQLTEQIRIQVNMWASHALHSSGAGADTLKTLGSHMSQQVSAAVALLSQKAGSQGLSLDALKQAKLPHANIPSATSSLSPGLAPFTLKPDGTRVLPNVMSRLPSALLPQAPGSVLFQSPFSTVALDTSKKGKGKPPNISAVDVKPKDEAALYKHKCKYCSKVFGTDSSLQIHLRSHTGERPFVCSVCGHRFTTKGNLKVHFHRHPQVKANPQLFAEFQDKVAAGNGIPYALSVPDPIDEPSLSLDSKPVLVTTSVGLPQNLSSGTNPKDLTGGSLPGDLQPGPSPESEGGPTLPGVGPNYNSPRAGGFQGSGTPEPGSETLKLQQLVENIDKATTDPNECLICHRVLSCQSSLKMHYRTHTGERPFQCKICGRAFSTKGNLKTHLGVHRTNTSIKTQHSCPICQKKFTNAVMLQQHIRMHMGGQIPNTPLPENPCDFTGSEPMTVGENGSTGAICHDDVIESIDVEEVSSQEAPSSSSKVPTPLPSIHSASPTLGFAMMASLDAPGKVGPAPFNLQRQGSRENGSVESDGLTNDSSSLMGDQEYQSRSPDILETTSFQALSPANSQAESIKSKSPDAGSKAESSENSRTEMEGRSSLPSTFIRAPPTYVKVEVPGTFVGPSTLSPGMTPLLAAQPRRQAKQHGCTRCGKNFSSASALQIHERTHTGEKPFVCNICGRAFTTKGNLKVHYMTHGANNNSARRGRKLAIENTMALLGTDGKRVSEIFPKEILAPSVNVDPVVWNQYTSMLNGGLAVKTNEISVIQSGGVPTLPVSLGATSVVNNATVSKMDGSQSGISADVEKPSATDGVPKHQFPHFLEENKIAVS"}
{"Oligonucleotide": "CCTAAGCC", "E-score": -0.33}
{"Oligonucleotide": "GCGAGGAC", "E-score": -0.246}
{"Oligonucleotide": "GAAGACTC", "E-score": -0.00898}
{"Oligonucleotide": "AACGGCTT", "E-score": -0.18}
{"Oligonucleotide": "CCGTGCCC", "E-score": -0.243}
{"Oligonucleotide": "CCCATTAG", "E-score": -0.272}
{"Oligonucleotide": "TCCCTAAA", "E-score": 0.168}
{"Oligonucleotide": "AAGGAAAT", "E-score": 0.287}
{"Oligonucleotide": "TAAAATGA", "E-score": 0.3}
{"Oligonucleotide": "ACGTGTTA", "E-score": 0.0968}
{"Oligonucleotide": "TAGCAACA", "E-score": 0.187}
{"Oligonucleotide": "CAAGGACA", "E-score": -0.0865}
{"Oligonucleotide": "ACACAAGC", "E-score": -0.0564}
{"Oligonucleotide": "TAATGCGA", "E-score": 0.235}
{"Oligonucleotide": "GACAACTA", "E-score": 0.143}
{"Oligonucleotide": "AGGATGCC", "E-score": -0.177}
{"Oligonucleotide": "CTCGCCAG", "E-score": -0.287}
{"Oligonucleotide": "AAGAGTAC", "E-score": 0.0644}
{"Oligonucleotide": "ATTCCACG", "E-score": -0.00585}
{"Oligonucleotide": "AGGGCGTC", "E-score": -0.245}
{"Oligonucleotide": "AACACGGA", "E-score": -0.0169}
{"Oligonucleotide": "CACGTCGG", "E-score": -0.301}
{"Oligonucleotide": "CGCCTTAC", "E-score": -0.0604}
{"Oligonucleotide": "CGCTGTAG", "E-score": -0.181}
{"data": "Series 4", "target": "ABI1, truncated, D143A, DHFR fusion (Arabidopsis thaliana)", "method": "DHFR PCA, deep sequencing", "medium": "yeast", "setting": "methotrexate growth selection, single substitutions", "added": "(+)-ABA 17 µM", "reference": "wild-type fitted maximum", "reading": "higher = stronger binding", "starting sequence": "PYL1, truncated, DHFR fusion (Arabidopsis thaliana); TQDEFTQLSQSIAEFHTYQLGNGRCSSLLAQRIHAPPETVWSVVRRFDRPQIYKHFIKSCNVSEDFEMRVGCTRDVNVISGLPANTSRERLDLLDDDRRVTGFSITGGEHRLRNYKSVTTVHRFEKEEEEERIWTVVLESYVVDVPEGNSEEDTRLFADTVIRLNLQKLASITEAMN"}
{"Substitution": "R69E", "relative binding score": "73.9%"}
{"Substitution": "H55W", "relative binding score": "78.8%"}
{"Substitution": "S80Y", "relative binding score": "29%"}
{"Substitution": "N165T", "relative binding score": "-3.75%"}
{"Substitution": "V161W", "relative binding score": "32.2%"}
{"Substitution": "V121A", "relative binding score": "30.9%"}
{"Substitution": "R98W", "relative binding score": "-13.3%"}
{"Substitution": "R99V", "relative binding score": "-12.4%"}
{"Substitution": "I162C", "relative binding score": "43.2%"}
{"Substitution": "R132M", "relative binding score": "82.7%"}
{"Substitution": "T39L", "relative binding score": "87.3%"}
{"Substitution": "T173C", "relative binding score": "95.1%"}
{"Substitution": "A175Q", "relative binding score": "86.6%"}
{"note": "Some of these lines once more (series 3):"}
{"Oligonucleotide": "GACAACTA", "E-score": 0.143}
{"Oligonucleotide": "AGGATGCC", "E-score": -0.177}
{"Oligonucleotide": "CTCGCCAG", "E-score": -0.287}
{"Oligonucleotide": "AAGAGTAC", "E-score": 0.0644}
{"Oligonucleotide": "ATTCCACG", "E-score": -0.00585}
{"Oligonucleotide": "AGGGCGTC", "E-score": -0.245}
{"Oligonucleotide": "AACACGGA", "E-score": -0.0169}
{"Oligonucleotide": "CACGTCGG", "E-score": -0.301}
